Measurements of several laboratories.
Parts stem from different laboratories: compare values within a part only. Substitutions count along the parent as printed.

Set 1
Target: RNA binding protein fox-1 homolog 2, RRM domain, GST-SBP tag (RBFOX2, Homo sapiens, UniProt O43251-10, residues 100-194)
Technique: RNA Bind-n-Seq
Form: RNA
Sample: in vitro
Tested at: 365 nM
Notes: natural RNA segment, single round, ends assumed
Relative to: no-protein control
Reading: higher = stronger binding
Construct (chain): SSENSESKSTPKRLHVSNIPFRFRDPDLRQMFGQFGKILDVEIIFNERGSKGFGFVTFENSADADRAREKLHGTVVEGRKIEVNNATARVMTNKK
`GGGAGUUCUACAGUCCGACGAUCGUGGCACAAUCAGCUCACUGCAACCCCUCCUCCUAGGUUCAAGCGAUUGAGUAGCUGAGAUUACAGGCAUGCAUCACUAUGCCUGGCUUUUUGUAUUUUUUAGUAGAGAUUGGAAUUCUCGGGUGCCAA`: “RBNS enrichment (R)” 1.67.
For `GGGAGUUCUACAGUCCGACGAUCUGAUAGUUCUGAAGGCAUGAGCAAGGCUUCAGAAAUGAUCACCACGCUUGCAGUUGAAAGUGCCAGUGUCAAAGAAAGUGUUGAGAAGCUGCCUCUUCAGUGCAAAGAUGUGGAAUUCUCGGGUGCCAA`, “RBNS enrichment (R)” read 1.88.
For `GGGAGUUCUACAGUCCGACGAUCACAGUUGGCUUAGCAGGGAGGAUCUGUAGAGCUCUCGAUGAUCCUUCCUCCAUGUGUGUCCUGUGAGGAUUUUGCUCAUGAGUCAUGCAGGCAGUGACAGUGAACUGUAAUGGAAUUCUCGGGUGCCAA`, “RBNS enrichment (R)” read 0.381.
For `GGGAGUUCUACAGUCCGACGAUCGGGGACUUUGUUGGUAGCCAUUUGGUAGAUGUUCUUUUCUAUUUAUAAGUGACUUUAAACUUUCCCUUGGCUGUUAAGAAGUUUGUUAUAGAUUUAGCUAUUUAUUGUUCUGGAAUUCUCGGGUGCCAA`, “RBNS enrichment (R)” read 0.672.
For `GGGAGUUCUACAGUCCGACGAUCCCUAAGGCAUCAUGCCUCAGCCCCUUGCACUGUAUGUUCCUAUAUGUCUACUUGUAUUGAUCCUUUGGGUCUCCUGGCCCAUUGCUAGGCACUGUUUGUGUGUUAUUAAUUGGAAUUCUCGGGUGCCAA`, “RBNS enrichment (R)” read 1.18.
Under “RBNS enrichment (R)”, `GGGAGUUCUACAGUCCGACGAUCGCUUAUUUUAAUGUGAUUUUUCUAAAACUAUUGAAAAAUUAAUAUUUCUAUAAUCUAUUAAAAAAAAUGGAGAAUGUUUUCUCUCAAAUUUCCUCUGACCCAUGGGAAUGUGGAAUUCUCGGGUGCCAA` is recorded as 0.515.
`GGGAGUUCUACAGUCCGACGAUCUAUAUUACUUUCUCAAAUUAAGUUACCAAAACAAACUGAAGAGCUGAAGCAGGUCUUCCAGACCCUGCGAUCCUUUCUGUAGCAGUGAUUCUAAAGUGGCGUUUGCUGUGUGGAAUUCUCGGGUGCCAA`: “RBNS enrichment (R)” 0.307.
For `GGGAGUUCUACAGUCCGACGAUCUUUGCUGUAGCCCUAGAGCACUUUGUUUGUGGGAGGCUGGCCUCUUGCCUACCUCCUUGCAUGGACAGGGGGAUGAAUAUUUACUUUCCCACCUCCUUGCUUUUUCUUUCUGGAAUUCUCGGGUGCCAA`, “RBNS enrichment (R)” read 1.17.
Under “RBNS enrichment (R)”, `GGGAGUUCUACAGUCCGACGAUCUUUGUACAGAAUGCGCUAUAAAUUAUACCUUUAAGAAUGUGGGGCCUUUUUUAUGAUUUUGUAAGUUCCCAUAAGUUGUGUGCACGAGGUUCUGAGAGUGCCCGCAGGCUUGGAAUUCUCGGGUGCCAA` is recorded as 4.77.
Under “RBNS enrichment (R)”, `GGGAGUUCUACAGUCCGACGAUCUCUCACCUGUUUCCCCACAAAGGGAAUUUCUCACUCUGGUUGGAAGCACAAACACUGAAAUGUCUACGUUUCAUUUUGGCAGUAGGGUGUGAAGCUGGGAGCAGAUCAUGUGGAAUUCUCGGGUGCCAA` is recorded as 0.299.
`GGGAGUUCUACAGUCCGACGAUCUUGUAUUUUGGAAGACAGGUUUUUUAAAGAAACAUUUUCCUCAGAUUAAAAGAUGAUGCUAUUACAACUAGCAUUGCCUCAAAAACUGGGACCAACCAAAGUGUGUCAACUGGAAUUCUCGGGUGCCAA` — result for “RBNS enrichment (R)”: 0.274.
`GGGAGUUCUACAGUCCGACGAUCAAUGUGCAGCAGGAGGUCCUUUUCCUUCUCUACCUUCCUCUUCUCCCUUUCCCUGGGGCCAGAUCAGGACACAGCACAGGGCAGGAGGCCCUGCCUAGCUUAAAGUAUAGUGGAAUUCUCGGGUGCCAA` — result for “RBNS enrichment (R)”: 0.234.

Set 2
Target: Ras GTPase-activating protein-binding protein 1, RRM domain (G3BP1, Homo sapiens, UniProt Q13283)
Chain of UniProt Q13283 (whole entry, looked up): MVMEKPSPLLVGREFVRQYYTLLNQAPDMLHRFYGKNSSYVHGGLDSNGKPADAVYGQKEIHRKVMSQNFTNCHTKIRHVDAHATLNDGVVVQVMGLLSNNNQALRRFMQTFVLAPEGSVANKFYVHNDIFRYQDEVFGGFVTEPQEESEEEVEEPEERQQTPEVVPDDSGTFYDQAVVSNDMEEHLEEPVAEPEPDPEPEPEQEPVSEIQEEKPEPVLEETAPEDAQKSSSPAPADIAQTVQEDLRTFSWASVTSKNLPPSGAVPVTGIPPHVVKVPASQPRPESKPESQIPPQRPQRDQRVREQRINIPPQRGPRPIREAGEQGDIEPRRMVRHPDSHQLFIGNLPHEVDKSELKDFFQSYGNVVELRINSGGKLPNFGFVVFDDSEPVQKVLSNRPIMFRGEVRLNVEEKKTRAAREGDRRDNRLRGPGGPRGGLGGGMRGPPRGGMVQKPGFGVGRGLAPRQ
Technique: RNA Bind-n-Seq
Form: RNA
Sample: in vitro
Tested at: 1 µM
Notes: whole 134-nt RNA, ends assumed
With: 150 mM KCl
Relative to: input library
Reading: higher = stronger binding
`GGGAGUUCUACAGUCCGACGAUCCAGAGACAACACGCACCCACACAGACACAGAGGGAAGGGGUUGGGAUGGGGACAGGGUGCACAGCAGGGCGGGGUAGGACCCCAGCCCCUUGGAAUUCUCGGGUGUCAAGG` has a log2 enrichment of -0.0841.
For `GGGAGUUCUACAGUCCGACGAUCGUCCUGUGCUACACAUCGUAUGUACCGAAUCAAAUUUUUUUAAACCCAAAUUUUUAAAAAAGUAUUAUGUUACGCCGUUCGGAUCUGCACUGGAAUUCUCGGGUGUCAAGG`, the log2 enrichment was -0.723.
For `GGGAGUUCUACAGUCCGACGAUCACCAUGCAGGUGGGCAUCUUUGGGAAGUGGGGCAAGGGGGGGAUAGGGAGAGGGGUAACACUUUGGGAACAGGUGGUCCCAGGUCGUUUCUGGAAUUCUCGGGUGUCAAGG`, the log2 enrichment was 1.18.
For `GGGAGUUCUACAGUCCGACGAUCUGCUGGAGGCAAAAAAUGCCAGCCUGGCGUCGUCCAACAACGACUUGCAGGUGGCCGAGGAGCAGUACCAGAGGCUUAUGGCCAAGGUAGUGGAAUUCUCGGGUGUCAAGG`, the log2 enrichment was -0.548.
`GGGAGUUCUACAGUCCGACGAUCGUCCUGUGCUACACAUCGUAUGUACCGAAUCGGGGAAAAAGGGGUUUUUGGGGUGGGGAAAGUAUUAUGUUACGCCGUUCGGAUCUGCACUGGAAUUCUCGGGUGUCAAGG` gave a log2 enrichment of 0.952.
The log2 enrichment of `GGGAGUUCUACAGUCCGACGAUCGCAGGAAGUAAAAACAAAUGGAAAUGCUUCGGAUAGUGGCAGGGGUGGGGGUUGCUAAAAAAAGGGUGGGAUGGGAGUGGGUAAAGAGUUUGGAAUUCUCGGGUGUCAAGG` is reported as 1.55.
`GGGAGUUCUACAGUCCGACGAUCAAGGCACGUAAGUUUAAGCUUUUUUUUUUUUUAAGUUAAUGGGAAAAAUUUGAGACGCAAUACCAAUACUUAGGAUUUUGGUCUUGGUGUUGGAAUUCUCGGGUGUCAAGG` has a log2 enrichment of -0.724.
`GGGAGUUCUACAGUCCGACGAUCCUCAAGUCCUGUGCUACACAUCGUAUGUACCGAAUCGGUUGGUUGGGGUUGGGAAAGUAUUAUGUUACGCCGUUCGGAUCUGCACUUCCAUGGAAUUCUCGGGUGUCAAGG` has a log2 enrichment of -0.218.
`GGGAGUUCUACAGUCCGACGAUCUGCCGUGCCGGGUGGACGGUCUGCUCGCCUGUCUGCGUGACGAAACUGAGGCACAAAGACGCGCUAUGCCAGCGGCGGGUAUAGCAAGGGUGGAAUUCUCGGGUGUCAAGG` has a log2 enrichment of -0.468.
The log2 enrichment of `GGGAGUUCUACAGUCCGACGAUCAAGUCCUGUGCUACACAUCGUAUGUACCGAAUCGGGCCCCGGCCCCGGGGCCCCGGAAAGUAUUAUGUUACGCCGUUCGGAUCUGCACUUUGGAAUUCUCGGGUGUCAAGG` is reported as -0.726.
The log2 enrichment of `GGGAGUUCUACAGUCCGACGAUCCACAGACAACACGCACCCACACAGACACAGAGGGAAUGGGUUGGGAUGGGGACAGGGUGCACAGCAGGGCGGGGUAGGACCCCAGCCCCUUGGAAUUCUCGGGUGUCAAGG` is reported as 0.0375.
The log2 enrichment of `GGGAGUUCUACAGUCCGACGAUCUAACUUUAGAGGAGGAUCUGAUGGAUAUGGCAGUGGACGUGGAUUUGGGUAUGGCUAUAAUGGGUAUGGAGGAGGACCUGGAGGUGGCAAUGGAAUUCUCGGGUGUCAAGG` is reported as -0.635.
`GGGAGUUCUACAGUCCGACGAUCCACAGACAACACGCACCCACACAGACACAGAGGGAAGGGGUUGGGAUGGGGACAGGGUGCACAGCAGGGCUGGGUAGGACCCCAGCCCCUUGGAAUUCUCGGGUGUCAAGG` has a log2 enrichment of -0.354.
For `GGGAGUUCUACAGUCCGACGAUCAAGUCCUGUGCUACACAUCGUAUGUACCGAAUCGGGUGGGAAAAAGGGAAAAAGGGAAAGUAUUAUGUUACGCCGUUCGGAUCUGCACUUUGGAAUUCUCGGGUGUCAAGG`, the log2 enrichment was 0.607.

Set 3
Target: CCND1, cyclin fold, Cln2 fusion (human)
Technique: yeast growth competition, sequencing
Sample: yeast
Notes: weak parent motif
Relative to: not given
Reading: higher = stronger binding
Parent: SLBP docking peptide (human); ARYKRKLLINDFG; partner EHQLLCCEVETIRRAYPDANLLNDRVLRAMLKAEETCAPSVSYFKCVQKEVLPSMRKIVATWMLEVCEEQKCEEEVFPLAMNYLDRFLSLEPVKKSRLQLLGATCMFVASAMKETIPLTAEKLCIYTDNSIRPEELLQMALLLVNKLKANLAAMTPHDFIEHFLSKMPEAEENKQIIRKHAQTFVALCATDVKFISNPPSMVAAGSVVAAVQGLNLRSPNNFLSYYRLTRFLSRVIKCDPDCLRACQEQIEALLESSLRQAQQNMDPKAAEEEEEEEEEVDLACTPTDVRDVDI
For `ARYKLKLLINDFG [R5L]`, “normalised enrichment score” read 0.677.
For `ARYFRKLLINDFG [K4F]`, “normalised enrichment score” read 0.556.
For `ARYERKLLINDFG [K4E]`, “normalised enrichment score” read -0.471.
Under “normalised enrichment score”, `ARYKRKLLKNDFG [I9K]` is recorded as 0.302.
`ARYKRKLLMNDFG [I9M]`: “normalised enrichment score” -0.00598.
`ERYKRKLLINDFG [A1E]` — result for “normalised enrichment score”: -0.277.
For `ARYKDKLLINDFG [R5D]`, “normalised enrichment score” read 0.0892.
`ATYKRKLLINDFG [R2T]` — result for “normalised enrichment score”: 0.557.
`ARYKRKLLINDCG [F12C]` — result for “normalised enrichment score”: -0.2.
Under “normalised enrichment score”, `ARYKRKVLINDFG [L7V]` is recorded as -0.403.

Single results of other studies
The fold induction of `PhoQ, residues 284 288 289 292 302 303 TLASMF` is reported as 2.42 (PhoP, residues 12 14 15 18 19 SYFRT (Escherichia coli, UniProt P23836); Sort-seq, item: YFP reporter; E. coli; PhoQ-PhoP variant library, with: 10 µM Mg2+; relative to: high Mg2+ state, higher = stronger signaling).

Some of these lines once more (set 1):
Under “RBNS enrichment (R)”, `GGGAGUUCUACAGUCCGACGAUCUUUGUACAGAAUGCGCUAUAAAUUAUACCUUUAAGAAUGUGGGGCCUUUUUUAUGAUUUUGUAAGUUCCCAUAAGUUGUGUGCACGAGGUUCUGAGAGUGCCCGCAGGCUUGGAAUUCUCGGGUGCCAA` is recorded as 4.77.
Under “RBNS enrichment (R)”, `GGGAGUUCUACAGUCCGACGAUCUCUCACCUGUUUCCCCACAAAGGGAAUUUCUCACUCUGGUUGGAAGCACAAACACUGAAAUGUCUACGUUUCAUUUUGGCAGUAGGGUGUGAAGCUGGGAGCAGAUCAUGUGGAAUUCUCGGGUGCCAA` is recorded as 0.299.
